Measurements from different studies.
Target: Cytochrome P450 2D6 (CYP2D6, Homo sapiens, UniProt P10635)
UniProt P10635, sequence (whole entry, looked up): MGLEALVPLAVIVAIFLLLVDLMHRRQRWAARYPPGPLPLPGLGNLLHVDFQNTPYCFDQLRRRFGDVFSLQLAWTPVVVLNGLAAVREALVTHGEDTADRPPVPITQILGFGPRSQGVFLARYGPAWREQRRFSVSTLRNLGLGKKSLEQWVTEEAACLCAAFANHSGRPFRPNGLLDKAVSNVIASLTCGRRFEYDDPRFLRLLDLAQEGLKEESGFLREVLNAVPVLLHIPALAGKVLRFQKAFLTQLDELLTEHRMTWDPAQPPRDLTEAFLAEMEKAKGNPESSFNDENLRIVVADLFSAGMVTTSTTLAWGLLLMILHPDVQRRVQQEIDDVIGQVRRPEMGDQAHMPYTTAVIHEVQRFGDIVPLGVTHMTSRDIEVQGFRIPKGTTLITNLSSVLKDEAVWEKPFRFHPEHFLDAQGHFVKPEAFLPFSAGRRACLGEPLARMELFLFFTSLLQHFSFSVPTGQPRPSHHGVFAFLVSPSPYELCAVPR
Mode: inhibitor

The IC50 of `C[C@@H](c1ccn(Cc2ccc(Cl)cc2Cl)n1)[C@](O)(Cn1cnnn1)c1ccc(F)cc1F` is reported as 0.15 µM (enzyme activity; human, liver microsomes).
For `C[C@](C(=O)NC1CCOCC1)(c1cncnc1)N(C(=O)[C@H](F)Cl)c1ccc(OC(F)(F)Cl)cc1`, the IC50 was > 50 µM (enzyme activity; 10 (unit not given)).
The IC50 of `NC(=O)c1c(F)ccc(OCc2nc3cc(Cl)cnc3s2)c1F` is reported as > 33.7 µM (enzyme activity, fluorescence).
The IC50 of `COc1ccc2c(c1OCc1ccccc1)C[C@@H](C(=O)O)N(c1nc3ccc(C#N)cc3o1)C2` is reported as > 50 µM (enzyme activity; human, liver microsomes; 15 min, pH 7.4).
With `CCc1nc(N)nc(N)c1C#CC(C)c1cc(-c2cc(C)nc(C)c2)ccc1Cl` (stereo not drawn) the IC50 was > 50 µM (enzyme activity, fluorescence; 30 min).
With `CC1CCC2(OC1)OC1CC3C4CC=C5CC(OC6OC(CO)C(OC7OC(CO)C(O)C7O)C(O)C6OC6OC(C)C(O)C(O)C6O)CCC5(C)C4CCC3(C)C1(O)C2C` (stereo not drawn) the IC50 was 13.9 µM (enzyme activity; human, liver microsomes; 1 h, pH 7.4).
`C[C@@H](c1ccn(Cc2ccc(OC(F)(F)F)cc2)n1)[C@](O)(Cn1cnnn1)c1ccc(F)cc1F` gave an IC50 of 0.549 µM (enzyme activity; human, liver microsomes).
`Cc1cc(/C=C/C#N)cc(C)c1Oc1nc(NC2CCN(Cc3ccc(S(C)(=O)=O)cc3)CC2)nc2ncccc12` has an IC50 of 12.7 µM (enzyme activity; 10 min).
`O=C(NC1CCC(F)(F)CC1)C(c1cncnc1)N(C(=O)C(F)Cl)c1ccc(-c2cncs2)cc1` (stereo not drawn) has an IC50 of 6.5 µM (enzyme activity; 10 (unit not given)).
The IC50 of `CCC(=O)N(C)c1ccc(Cl)c(Cl)c1` is reported as > 25 µM (enzyme activity; human, liver microsomes; 10 min).
`C[C@@H](c1ccn(Cc2ccc(Cl)c(Cl)c2)n1)[C@](O)(Cn1cnnn1)c1ccc(F)cc1F` gave an IC50 of 5.49 µM (enzyme activity; human, liver microsomes).
The IC50 of `C=CC(=O)Nc1cc(Nc2nccc(-c3cn(C)c4ccccc34)n2)c(OCC(F)(F)F)nc1N(C)CCN(C)C` is reported as > 100 µM (enzyme activity; human, liver microsomes).
`C=C(C)C(=O)Nc1ccc(-c2c(-c3ccc(Oc4nccc(C)n4)cc3)c3c(N)ncnc3n2C)cc1` gave an IC50 of 3.6 µM (enzyme activity).
`O=c1nc(NO)ccn1[C@@H]1O[C@H](CO)[C@@H](O)[C@H]1O` gave an IC50 of > 100 µM (enzyme activity; human, liver microsomes; 20 min, pH 7.4).
`O=C1c2oc3cc(O)c(O)cc3c2C(=O)c2oc3cc(O)c(O)cc3c21` gave an IC50 of 3.4 µM (dextromethorphan O-demethylation; pooled human liver microsomes; 60 min, pH 7.4, 37 °C, preincubation 0 min without NADPH).
For `COC(=O)c1ccc2c(c1)NC(=O)/C2=C(\Nc1ccc2c(c1)CCN2C(=O)CN1CCOCC1)c1ccccc1`, the IC50 was > 80 µM (recombinant enzyme; 10 min, together with: dextromethorphan 5 µM).
For `Cc1c(NC(=O)c2ccc3c(c2)CC[C@@H]2C[C@@](O)(C(F)(F)F)CC[C@@]32Cc2ccccc2)ccc[n+]1[O-]`, the IC50 was 39 µM (enzyme activity; human, liver microsomes).
The IC50 of `CCc1nc(N)nc(N)c1C#CC(C)c1cc(-c2cc(C)nc(C)c2)ccc1OC` (stereo not drawn) is reported as 9.8 µM (enzyme activity, fluorescence; 30 min).

Some of these lines once more:
`O=C(NC1CCC(F)(F)CC1)C(c1cncnc1)N(C(=O)C(F)Cl)c1ccc(-c2cncs2)cc1` (stereo not drawn) has an IC50 of 6.5 µM (enzyme activity; 10 (unit not given)).
The IC50 of `CCC(=O)N(C)c1ccc(Cl)c(Cl)c1` is reported as > 25 µM (enzyme activity; human, liver microsomes; 10 min).
